Results collected from several papers.
Protocols differ between the studies behind these lines. Values joined by “and” are separate records of one study, mostly repeats; a detail may differ. Numbers after ± are the reported error.

| SMILES | tested on | test | system | setting | scale | quantity | result |
| --- | --- | --- | --- | --- | --- | --- | --- |
| NC[C@@]1(CC(=O)O)[C@@H]2CC[C@H]3C[C@@H]2[C@@H]1C3 |  |  | human, severe renal impairment, plasma | oral, 20 mg single dose, geometric mean |  | apparent volume of distribution | 48.8 L |
| N=S(c1ccc(C(F)(F)F)cc1)c1cccnc1 (centres unmarked) |  |  | human liver microsomes |  | relative to: hepatic blood flow | metabolic stability | < 23% |
| CCOc1c([C@H](C)n2nc(C)c3c(N)ncnc32)cc(Cl)c(F)c1[C@@H]1CNC(=O)C1 |  | item: QTcF ≤450 ms | previously treated B-cell malignancy | oral, 10 mg once daily, baseline QTcF ≤450 ms |  | ECG observations | 100% |
| CC(C)(C(=O)N1CCOc2c(C#N)cncc2C1)C(F)F |  | item: skin irritation | healthy humans, both sexes | oral, 30 mg single dose |  | subjects with TEAE | 0% |
| Nc1nc(=S)c2[nH]cnc2[nH]1 | HBL-1 |  |  | 1 µM, 120 h |  | viability | 74.7% |
| C[C@@H](N)C1CCN(S(=O)(=O)c2cccc3cnccc23)CC1 |  |  | healthy volunteers | 75 mg, fasted |  | discontinuations due to TEAEs | 0% |
| N#Cc1ccc2c(c1)[C@H]1CCCN(C(=O)c3ccc4[nH]cnc4c3)[C@H]1C2 |  |  | human males | 20 mg, end of trial |  | SHBG level | 36.3 nmol/L |
| C[C@H]1O[C@@H](O[C@H]2CC[C@@]3(C)[C@@H](CC[C@]4(C)[C@@H]3C=C[C@]35OC[C@@]6(CCC(C)(C)C[C@H]63)[C@@H](O)C[C@]54C)[C@]2(C)CO)[C@H](O)[C@@H](O[C@@H]2O[C@H](CO)[C@@H](O)[C@H](O)[C@H]2O)[C@H]1O |  | UHPLC-MS/MS | mouse, plasma | oral, 50 mg/kg, 0.5 h, pooled samples |  | plasma concentration | 68.5 ng/mL and 58.4 ng/mL |
| Cc1cc(NC2CCN(C(=O)OC3CCN(C(=O)/C=C/CN(C)C)C3)CC2)n2ncc(C(C)C)c2n1 (centres unmarked) |  | Phase I dose escalation CTCAE v4.0, item: Asthenia | patients with advanced solid tumours | dose not given, TIW dosing any grade |  | patients with adverse event | 46% |
| COc1cc(C(=O)N2CCC3(CC2)CC(=O)c2c(cnn2C(C)C)C3)cc(-c2ccc(C(=O)O)cc2)n1 |  | item: HDL cholesterol | human, fasting serum | 30 mg every 12 h, day 13, adjusted geometric mean | relative to: baseline | percentage change from baseline | -11.2% |
| Cc1cc(Nc2ccc(S(F)(F)(F)(F)F)cc2)n2nc(C(C)(F)F)nc2n1 |  |  | Plasmodium vivax malaria patients | oral, 800 mg |  | adverse event Nausea | 0% |
| CN[C@@H](C)C(=O)N[C@H]1CN(S(=O)(=O)c2cccc(S(=O)(=O)N3CC[C@H]4CC[C@@H](C(=O)NC(c5ccccc5)c5ccccc5)N4C(=O)[C@@H](NC(=O)[C@H](C)NC)C3)c2)CC[C@H]2CC[C@@H](C(=O)NC(c3ccccc3)c3ccccc3)N2C1=O |  | LC-MS/MS, noncompartmental | human, plasma | 45 mg, cycle 1 day 1 |  | Vss | 38.3 ± 16.1 L |
| Cc1cccc(CNC(=O)c2cn(CCNC(=O)c3ccccc3Sc3c([N+](=O)[O-])ncn3C)c3cc4c(cc3c2=O)OC(F)(F)O4)n1 |  |  | Sprague-Dawley rat, male, plasma | intravenous, 5 mg/kg of parent drug |  | AUC(0-t) | 264 ± 44 ng·h/mL |
| CN1CCC[C@H](CN2c3ccccc3Sc3ccccc32)C1.Cl |  |  | Wistar rat female, kidney | oral, 16 mg/kg |  | AUC(0-t) | 55100 ng·h/mL |
| OB1NN=Cc2ccccc21 |  | stability, UPLC-MS | diluted serum | 7 day, 37 °C | higher = more compound remaining | peak area | 303000 a.u. and 328000 a.u. and 327000 a.u. |
| CC[C@H](C)[C@H](NC(=O)[C@H](Cc1ccccc1)NC(=O)[C@H](CCC(=O)O)NC(=O)[C@H](CCCCNC(=O)COCCOCCNC(=O)COCCOCCNC(=O)CC[C@H](NC(=O)CCCCCCCCCCCCCCCCC(=O)O)C(=O)O)NC(=O)[C@H](C)NC(=O)[C@H](C)NC(=O)[C@H](CCC(N)=O)NC(=O)CNC(=O)[C@H](CCC(=O)O)NC(=O)[C@H](CC(C)C)NC(=O)[C@H](Cc1ccc(O)cc1)NC(=O)[C@H](CO)NC(=O)[C@H](CO)NC(=O)[C@@H](NC(=O)[C@H](CC(=O)O)NC(=O)[C@H](CO)NC(=O)[C@@H](NC(=O)[C@H](Cc1ccccc1)NC(=O)[C@@H](NC(=O)CNC(=O)[C@H](CCC(=O)O)NC(=O)C(C)(C)NC(=O)[C@@H](N)Cc1cnc[nH]1)[C@@H](C)O)[C@@H](C)O)C(C)C)C(=O)N[C@@H](C)C(=O)N[C@@H](Cc1c[nH]c2ccccc12)C(=O)N[C@@H](CC(C)C)C(=O)N[C@H](C(=O)N[C@@H](CCCNC(=N)N)C(=O)NCC(=O)N[C@@H](CCCNC(=N)N)C(=O)NCC(=O)O)C(C)C |  | item: TNF-α, IL-10, IL-1β, IL-6 | C57BL/6N mice, high-fat diet-induced obese, serum | intraperitoneal, dose not given, 29 days | relative to: vehicle | serum inflammatory cytokines | no effect |
| C=CC(=O)Nc1cc(Nc2nccc(-c3cn(C)c4ccccc34)n2)c(OC)cc1N(C)CCN(C)C |  | storage stability | human plasma | 30 d, on ice, HQC level |  | recovery | 55.1% |
| Cc1nc(-c2cnc(NC(C)C)n(C)c2=O)ccc1Oc1ccnc(-c2cnn(C)c2)c1 |  |  | DBA/1 mouse, female, plasma | oral, 30 mg/kg, single dose |  | apparent clearance | 1.83 mL/min/kg |
| Cc1c(Cl)c(C)[n+]([O-])c(Cl)c1-c1noc(-c2cc(O)c(O)c([N+](=O)[O-])c2)n1 |  | item: Mild severity | healthy Chinese subjects | oral, 100 mg |  | adverse event incidence | 33.3% |

| SMILES | tested on | test | system | setting | scale | quantity | result |
| --- | --- | --- | --- | --- | --- | --- | --- |
| NC1(C(=O)N[C@@H](CCO)c2ccc(Cl)cc2)CCN(c2nc[nH]c3nccc2-3)CC1 |  |  | metastatic CRPC patients | 480 mg b.i.d., grade 3 to 4, treatment-related, added: enzalutamide 160 mg daily |  | incidence of Dyspepsia | 0% |
| CCN1/C(=C/C(C)=O)Sc2ccc(F)cc21 |  |  | cynomolgus monkey | oral, 10 mg/kg, 4 h post-dose |  | QT interval | 267 ± 33 ms |
| O=C(O)c1ccc(O)c2ncccc12 | HBL-1 |  |  | 0.1 µM, 120 h |  | viability | 124% |
| Cc1cc(-c2nccc3c2ccn3CC(=O)Nc2ccc(-c3cnccn3)cn2)ccn1 |  |  | human | 15 mg once daily, multiple ascending dose |  | subjects with Erythema adverse event | 11.1% |
| C[C@@H]1COCCN1c1cc(C2([S@](C)(=N)=O)CC2)nc(-c2cc[nH]c3nccc2-3)n1 |  |  | Japanese advanced solid tumour patients | oral, 160 mg twice daily, any grade |  | Nausea incidence | 66.7% |
| CCOc1c([C@H](C)n2nc(C)c3c(N)ncnc32)cc(Cl)c(F)c1[C@@H]1CNC(=O)C1 |  |  | rat plasma | 800 ng/mL, three freeze-thaw cycles | relative to: nominal concentration | stability relative error | -6.7% |
| Cc1cnc(Nc2ccc(OCCN3CCCC3)cc2)nc1Nc1cccc(S(=O)(=O)NC(C)(C)C)c1 |  |  | BALB/c mice, rhEPO-induced polycythemia | 120 mg/kg, day 5 |  | body weight | 18.6 g and 18.8 g and 17.6 g and 20.1 g |
| Cc1cc(C)cc(-c2ccc([C@@H]3[C@@H](CO)N4CCCCN(S(=O)(=O)c5ccccc5C)C[C@@H]34)cc2)c1 | IDE (Homo sapiens, UniProt P14735) | enzyme activity, inhibitor, fluorescence kinetic |  | added: Mca-RPPGFSAFK(Dnp)-OH substrate |  | EC50 | 0.061 µM |
| COCc1cc(C(=O)Nc2cc([C@H]3CC[C@@H](OC(=O)NC(C)C)C3)[nH]n2)n(C)n1 |  |  | OVCAR-3 xenograft, NOD/SCID gamma mice, plasma | oral, 175 twice daily, tumour growth inhibition study |  | Tmax | 7.5 h |
| CCn1cc(C(=O)N2CCOCC2)c(=O)c2cc(NC3Cc4ccccc4C3)cnc21 |  |  | human, fed | oral suspension, 300 mg single dose, arithmetic mean |  | AUC(0-last) | 13500 ng·h/mL |
| CN1CCN(C(=O)c2ccc3cc(CCNc4ccnc5ccc(C#N)cc45)ccc3c2)CC1 |  |  | female BALB/c mouse, CT26 tumour, tumour and blood | intravenous, 2.5 mg/kg | relative to: tumour over blood | tissue/plasma ratio | ~20 |
| O=C(O)CCC(=O)O.[2H]C([2H])([2H])Oc1cc(C)c2[nH]ccc2c1CN1CC[C@@H](C2CC2)C[C@H]1c1ccc(C(=O)O)cc1 |  | multiple ascending dose | healthy Chinese subjects | 200 mg once daily |  | subjects with elevated triglycerides TEAE | 25% |
| COC(=O)N[C@@H](C)CNc1nccc(-c2cn(C(C)C)nc2-c2cc(Cl)cc(NS(C)(=O)=O)c2F)n1 |  |  | human, plasma | oral, single dose, added: posaconazole | relative to: compound alone | AUClast geometric mean ratio | 284% |
| Cn1cc(Nc2nccc(-c3ccc4c(c3)CN(C3COC3)CC[C@H]4NC(=O)c3cn(C(C)(C)C)nn3)n2)cn1 |  |  | human, whole blood | 150 mg twice daily, day 14 | relative to: pre-dose baseline | plasmablast count change | -53.6% |
| C=CC(=O)N1CCC(Oc2cc3c(Nc4ccc(Cl)c(Cl)c4F)ncnc3cc2OC)CC1 |  |  | Sprague-Dawley rat, male, plasma | oral, 2 mg/kg, 1 weeks pretreatment, added: Schisandrin A 20 mg/kg daily pretreatment |  | Vz/F | 1.44 ± 0.5 L/kg |
| CC[C@H](C)[C@H](NC(=O)[C@H](Cc1ccccc1)NC(=O)[C@H](CCC(=O)O)NC(=O)[C@H](CCCNC(=N)N)NC(=O)[C@H](C)NC(=O)[C@H](C)NC(=O)[C@H](CCC(N)=O)NC(=O)[C@H](CCC(=O)O)NC(=O)[C@H](CCC(=O)O)NC(=O)[C@H](CC(C)C)NC(=O)[C@H](Cc1ccc(O)cc1)NC(=O)[C@H](CO)NC(=O)[C@H](CO)NC(=O)[C@@H](NC(=O)[C@H](CC(=O)O)NC(=O)[C@H](CO)NC(=O)[C@@H](NC(=O)[C@H](Cc1ccccc1)NC(=O)[C@@H](NC(=O)CNC(=O)[C@H](CCC(=O)O)NC(=O)[C@H](C)NC(=O)CCc1c[nH]cn1)[C@@H](C)O)[C@@H](C)O)C(C)C)C(=O)N[C@@H](C)C(=O)N[C@@H](Cc1c[nH]c2ccccc12)C(=O)N[C@@H](CC(C)C)C(=O)N[C@H](C(=O)N[C@@H](CCCNC(=N)N)C(=O)NCC(=O)N[C@@H](CCCNC(=N)N)C(=O)N[C@@H](CCCCNC(=O)COCCOCCNC(=O)COCCOCCNC(=O)CC[C@H](NC(=O)CCCCCCCCCCCCCCCCC(=O)O)C(=O)O)C(=O)O)C(C)C |  | UPLC-MS | rat, plasma | subcutaneous, 20 nmol/kg |  | Vz/F | 0.166 L/kg |
| CNCc1ccc(-c2[nH]c3cc(F)cc4c3c2CCNC4=O)cc1 |  |  | human patients | oral, 600 mg twice daily, grade 4 |  | malignant neoplasm progression incidence | 0% |
| COc1ccnc(C(=O)N[C@H]2COC(=O)[C@H](Cc3ccccc3)[C@@H](O)[C@H](C)OC2=O)c1O |  | aerobic dark soil incubation | clay loam soil | 20 °C, persistence endpoint |  | DT50 | 5.49 days |
| Cn1cncc1-c1c(F)cncc1NC(=O)c1c(N)nn2cc(F)cnc12 |  |  | patients, advanced solid tumours | oral, 180 mg once daily | relative to: patients | grade ≥1 adverse events | 100% |
